# Assay results pooled from the literature.
# Each line is one published result; not all experiments were run side by side. ± gives the spread as reported.
# CYP2E1: Cytochrome P450 2E1 (CYP2E1, Homo sapiens, UniProt P05181)
# Chain of UniProt P05181 (whole entry, looked up): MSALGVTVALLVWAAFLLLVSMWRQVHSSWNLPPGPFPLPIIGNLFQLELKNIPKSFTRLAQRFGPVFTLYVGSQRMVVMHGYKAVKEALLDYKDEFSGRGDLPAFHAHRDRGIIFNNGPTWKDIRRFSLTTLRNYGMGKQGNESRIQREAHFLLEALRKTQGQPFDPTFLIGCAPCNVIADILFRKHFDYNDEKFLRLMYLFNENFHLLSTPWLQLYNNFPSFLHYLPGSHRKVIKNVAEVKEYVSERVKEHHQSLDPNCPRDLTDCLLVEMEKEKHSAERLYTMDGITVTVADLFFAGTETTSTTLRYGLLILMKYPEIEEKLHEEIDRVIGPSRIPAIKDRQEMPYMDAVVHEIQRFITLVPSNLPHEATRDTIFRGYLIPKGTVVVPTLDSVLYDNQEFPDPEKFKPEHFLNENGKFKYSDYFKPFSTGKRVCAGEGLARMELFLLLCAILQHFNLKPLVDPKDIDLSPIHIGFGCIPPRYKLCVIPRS
# CYP3A4: Cytochrome P450 3A4 (CYP3A4, Homo sapiens, UniProt P08684)
# Chain of UniProt P08684 (whole entry, looked up): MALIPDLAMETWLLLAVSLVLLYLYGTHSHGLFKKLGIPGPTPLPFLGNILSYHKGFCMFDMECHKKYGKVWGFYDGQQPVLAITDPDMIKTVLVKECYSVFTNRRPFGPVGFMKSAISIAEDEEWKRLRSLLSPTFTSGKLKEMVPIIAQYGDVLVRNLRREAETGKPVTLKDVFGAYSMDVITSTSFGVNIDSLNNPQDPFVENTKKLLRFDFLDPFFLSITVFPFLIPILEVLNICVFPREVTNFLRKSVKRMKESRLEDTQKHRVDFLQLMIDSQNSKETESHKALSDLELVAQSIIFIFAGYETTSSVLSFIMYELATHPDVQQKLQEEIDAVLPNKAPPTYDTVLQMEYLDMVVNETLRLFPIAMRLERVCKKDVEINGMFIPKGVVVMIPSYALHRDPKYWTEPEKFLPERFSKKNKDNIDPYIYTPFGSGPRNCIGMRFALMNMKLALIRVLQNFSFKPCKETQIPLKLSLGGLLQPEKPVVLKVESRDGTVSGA
# Chain of UniProt P16257 (whole entry, looked up): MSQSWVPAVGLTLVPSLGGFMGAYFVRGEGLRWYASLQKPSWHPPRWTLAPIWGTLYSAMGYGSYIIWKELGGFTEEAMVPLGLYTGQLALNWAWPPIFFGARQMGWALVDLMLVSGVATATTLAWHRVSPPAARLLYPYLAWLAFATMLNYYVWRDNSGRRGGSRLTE
# Chain of UniProt P05177 (whole entry, looked up): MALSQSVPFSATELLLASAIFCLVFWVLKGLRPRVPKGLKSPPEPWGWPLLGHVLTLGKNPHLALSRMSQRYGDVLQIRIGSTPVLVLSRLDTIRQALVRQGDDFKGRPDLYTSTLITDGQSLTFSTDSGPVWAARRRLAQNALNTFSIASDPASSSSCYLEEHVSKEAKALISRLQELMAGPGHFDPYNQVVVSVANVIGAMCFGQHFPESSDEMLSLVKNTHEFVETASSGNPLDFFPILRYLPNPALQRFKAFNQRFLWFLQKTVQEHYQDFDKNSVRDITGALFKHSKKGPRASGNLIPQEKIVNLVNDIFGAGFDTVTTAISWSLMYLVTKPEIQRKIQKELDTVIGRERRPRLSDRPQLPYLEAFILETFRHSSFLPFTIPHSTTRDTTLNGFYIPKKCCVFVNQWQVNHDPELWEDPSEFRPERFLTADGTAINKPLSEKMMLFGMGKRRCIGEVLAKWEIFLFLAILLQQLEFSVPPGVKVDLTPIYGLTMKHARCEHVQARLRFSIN
# Chain of UniProt P34913 (whole entry, looked up): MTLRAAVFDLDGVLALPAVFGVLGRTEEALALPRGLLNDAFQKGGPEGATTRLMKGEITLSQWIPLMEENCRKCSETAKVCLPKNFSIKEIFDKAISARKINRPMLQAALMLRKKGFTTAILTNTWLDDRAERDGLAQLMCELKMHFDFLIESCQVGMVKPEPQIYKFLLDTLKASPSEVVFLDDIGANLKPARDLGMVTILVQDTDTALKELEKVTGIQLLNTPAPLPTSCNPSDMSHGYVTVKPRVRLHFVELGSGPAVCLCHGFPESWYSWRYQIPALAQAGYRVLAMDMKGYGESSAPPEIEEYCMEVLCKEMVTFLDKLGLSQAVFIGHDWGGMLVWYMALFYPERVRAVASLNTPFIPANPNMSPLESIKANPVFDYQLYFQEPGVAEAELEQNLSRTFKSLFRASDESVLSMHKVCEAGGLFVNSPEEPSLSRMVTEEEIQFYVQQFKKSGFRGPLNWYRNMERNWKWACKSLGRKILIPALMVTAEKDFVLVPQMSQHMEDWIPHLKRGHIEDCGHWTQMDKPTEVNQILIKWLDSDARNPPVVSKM
# Chain of UniProt P21447 (whole entry, looked up): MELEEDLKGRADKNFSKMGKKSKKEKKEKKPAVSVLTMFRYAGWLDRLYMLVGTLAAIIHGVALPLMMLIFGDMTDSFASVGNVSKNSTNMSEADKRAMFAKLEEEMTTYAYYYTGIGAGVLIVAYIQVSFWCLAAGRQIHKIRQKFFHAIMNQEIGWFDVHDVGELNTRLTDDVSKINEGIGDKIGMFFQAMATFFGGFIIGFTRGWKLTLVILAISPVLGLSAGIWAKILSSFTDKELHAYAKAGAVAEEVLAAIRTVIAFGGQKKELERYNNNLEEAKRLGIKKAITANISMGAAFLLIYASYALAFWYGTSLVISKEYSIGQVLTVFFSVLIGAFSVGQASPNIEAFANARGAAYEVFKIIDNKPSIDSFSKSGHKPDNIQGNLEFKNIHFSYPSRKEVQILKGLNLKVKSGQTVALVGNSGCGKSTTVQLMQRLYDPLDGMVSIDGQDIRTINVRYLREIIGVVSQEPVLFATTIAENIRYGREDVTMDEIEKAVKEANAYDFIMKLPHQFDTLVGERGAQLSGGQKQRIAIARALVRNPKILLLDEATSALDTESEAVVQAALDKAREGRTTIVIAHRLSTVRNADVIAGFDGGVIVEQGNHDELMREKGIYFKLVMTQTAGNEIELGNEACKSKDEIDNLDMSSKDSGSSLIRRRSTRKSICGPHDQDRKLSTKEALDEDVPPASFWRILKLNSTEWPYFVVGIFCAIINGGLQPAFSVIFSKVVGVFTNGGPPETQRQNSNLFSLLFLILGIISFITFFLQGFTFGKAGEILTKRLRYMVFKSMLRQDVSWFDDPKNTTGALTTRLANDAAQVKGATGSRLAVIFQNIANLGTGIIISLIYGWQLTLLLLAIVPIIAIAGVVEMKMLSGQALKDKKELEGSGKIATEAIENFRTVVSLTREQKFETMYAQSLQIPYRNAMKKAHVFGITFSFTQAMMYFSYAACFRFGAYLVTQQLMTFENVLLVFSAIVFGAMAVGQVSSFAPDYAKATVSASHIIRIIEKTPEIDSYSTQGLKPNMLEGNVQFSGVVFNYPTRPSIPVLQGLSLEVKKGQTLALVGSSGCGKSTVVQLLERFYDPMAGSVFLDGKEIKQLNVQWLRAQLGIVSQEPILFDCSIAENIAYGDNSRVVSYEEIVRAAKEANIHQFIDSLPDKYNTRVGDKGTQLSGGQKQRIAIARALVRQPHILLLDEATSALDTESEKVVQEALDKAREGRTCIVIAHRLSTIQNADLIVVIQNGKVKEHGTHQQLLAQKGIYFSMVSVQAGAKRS
# Chain of UniProt Q3UFF7 (whole entry, looked up): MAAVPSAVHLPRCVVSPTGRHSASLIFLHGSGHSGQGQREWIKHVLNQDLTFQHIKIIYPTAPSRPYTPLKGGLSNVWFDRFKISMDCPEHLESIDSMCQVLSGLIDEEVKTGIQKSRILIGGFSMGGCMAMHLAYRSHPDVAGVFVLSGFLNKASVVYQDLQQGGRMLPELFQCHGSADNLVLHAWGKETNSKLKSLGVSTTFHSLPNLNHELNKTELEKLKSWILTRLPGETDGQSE
# Chain of UniProt P06873 (whole entry, looked up): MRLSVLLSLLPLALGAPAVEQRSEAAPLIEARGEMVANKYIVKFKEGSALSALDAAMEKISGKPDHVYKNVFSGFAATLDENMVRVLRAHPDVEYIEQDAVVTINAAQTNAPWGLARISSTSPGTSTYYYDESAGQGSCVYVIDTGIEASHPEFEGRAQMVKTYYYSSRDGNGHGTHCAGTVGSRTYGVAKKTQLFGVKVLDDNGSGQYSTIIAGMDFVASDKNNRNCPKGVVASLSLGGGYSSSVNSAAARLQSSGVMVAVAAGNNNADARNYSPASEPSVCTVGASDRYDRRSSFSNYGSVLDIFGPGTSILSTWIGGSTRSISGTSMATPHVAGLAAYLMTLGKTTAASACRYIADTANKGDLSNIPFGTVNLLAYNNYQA
# Chain of UniProt P43235 (whole entry, looked up): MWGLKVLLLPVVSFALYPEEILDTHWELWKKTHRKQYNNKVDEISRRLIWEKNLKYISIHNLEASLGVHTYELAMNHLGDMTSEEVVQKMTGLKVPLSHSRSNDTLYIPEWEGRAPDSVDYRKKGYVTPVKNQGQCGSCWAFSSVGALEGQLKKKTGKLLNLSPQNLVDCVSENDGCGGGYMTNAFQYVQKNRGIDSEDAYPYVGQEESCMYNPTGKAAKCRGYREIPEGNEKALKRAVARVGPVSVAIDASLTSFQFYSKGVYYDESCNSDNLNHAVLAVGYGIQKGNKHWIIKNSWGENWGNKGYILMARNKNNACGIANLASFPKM
# Chain of UniProt P00761 (whole entry, looked up): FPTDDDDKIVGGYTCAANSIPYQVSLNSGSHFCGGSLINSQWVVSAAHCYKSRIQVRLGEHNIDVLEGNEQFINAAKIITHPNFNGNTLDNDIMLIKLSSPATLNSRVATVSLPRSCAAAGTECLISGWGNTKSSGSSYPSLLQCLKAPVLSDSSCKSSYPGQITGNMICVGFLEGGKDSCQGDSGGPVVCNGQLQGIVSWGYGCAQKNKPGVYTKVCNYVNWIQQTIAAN
SMILES,target,test,system,conditions,scale,quantity,result
Cc1nc2ccc(S(=O)(=O)n3nc(SCc4ccc(Cl)cc4)nc3N)cc2s1,"Lysophospholipase-like protein 1 (Mus musculus, UniProt Q3UFF7)",gel-based ABPP,"C57BL/6J mouse, male, kidney","intraperitoneal, 100 mg/kg, 25 min, with: LYPLAL1 alkyne probe 5 mg/kg",reference: vehicle,activity-based probe labelling,1.8 fold
CNc1c(C)n(C)n(-c2ccccc2)c1=O,CYP2E1,"4-aminoantipyrine formation, substrate, recombinant supersomes",,"50 µM, up to 2 h",,N-demethylation,inactive
C=CC(=O)Nc1cc(Nc2nccc(-c3cn(C)c4ccccc34)n2)c(OCC(F)(F)F)nc1N(C)CCN(C)C,CYP3A4,"enzyme activity, inhibitor","human, liver microsomes","10 µM, testosterone probe",,activity vs control,91.3%
COc1ccc2cc(NC(=O)c3cc(-c4ccncc4)nc4ccccc34)ccc2c1,CYP3A4,"substrate, LC-MS, measured: hydroxylated metabolite M2",baculosomes,,,Km,0.6 ± 0.1 µM
CCCC[C@H](NC(C)=O)C(=O)N[C@@H](CO)C(=O)N[C@H](C(=O)N1CCC[C@H]1C(=O)N[C@]1(C)CCCCCCC=CCCC[C@@](C)(C(=O)N[C@@H](Cc2ccccc2)C(=O)N[C@@H](CCCCN)C(=O)N[C@@H](CCCNC(=N)N)C(=O)N[C@@H](CC(C)C)C(=O)N[C@@H](CCC(N)=O)C(N)=O)NC(=O)[C@H](CCCNC(=N)N)NC(=O)[C@H](CCCC)NC(=O)[C@H](CC(C)C)NC(=O)[C@H](CCCNC(=N)N)NC(=O)[C@H](CCCNC(=N)N)NC(=O)[C@H](CCCNC(=N)N)NC1=O)[C@@H](C)O,"Proteinase K (PROK, Engyodontium album, UniProt P06873)","substrate, LC-MS",,"25 µM, pH 7.4",,half-life,6.5 h
O=C(O)[C@@H]1C[C@@H](O)CN1C(=O)[C@@H]1CCCN1,iron(III) ion,"complex formation, from log β",aqueous 0.15 M NaCl,"37 °C, MAH−2 complex species",,−ΔG,5.73 kcal/mol
CC(C)C[C@H](NC(=O)CNC(=O)[C@H](CC(C)C)NC(=O)[C@@H]1CCCN1)C(=O)N[C@@H](CCCNC(=N)N)C(=O)N[C@@H](CO)C(=O)N[C@@H](CCCCN)C(=O)O,MMP-9,"substrate, HPLC",,"500 µM, 72 h, pH 7.5, 37 °C, with: 10 U MMP-9",,remaining substrate,6%
O=C(Nc1ccc(OC(F)(F)F)cc1)N1CCC(Cc2cccc(Oc3ccc(C(F)(F)F)cn3)c2)CC1,"EPHX2 (Homo sapiens, UniProt P34913)",FRET displacement,,,,dissociation half-life,0.197 h
[64Cu+2].c1ccc(CNCc2ccc(CN3CCCN4CCNCCCN(CC4)CC3)cc2)nc1,CXCR4,,"NOD/SCID mouse, U87 and U87-stb-CXCR4 xenografts, lungs","iv, 240 min, ex vivo",,tissue uptake,8.09 ± 1.59 %ID/g
COc1cc(-c2nc3ccccc3s2)cc(CN(C)Cc2ccccn2)c1O,Zn2+,UV-vis pH titration,,M2+ + L- = [ML]+ complex,,log K,15.2
C=CCc1cccc(CNc2nc3ccccc3n2CCC)c1O,"ALDH1A2 (Homo sapiens, UniProt O94788)",enzyme activity,,"pH 7.5, 25 °C, with: propionaldehyde 100 µM, NAD+ 200 µM",,EC50,740 ± 210 nM
CC(=O)N[C@@H](CCCCN)C(=O)N[C@@H](CO)C(=O)N[C@@H](CC(C)C)C(=O)N[C@@H](CO)C(=O)N[C@@H](CC(C)C)C(=O)N[C@@H](CO)C(=O)N[C@@H](CC(C)C)C(=O)N[C@@H](CCCNC(=N)N)C(=O)NCC(=O)N[C@@H](CO)C(=O)N[C@@H](CC(C)C)C(=O)N[C@@H](CO)C(=O)N[C@@H](CC(C)C)C(=O)N[C@@H](CO)C(=O)N[C@@H](CC(C)C)C(=O)N[C@@H](CCCCN)C(N)=O,"Trypsin (Sus scrofa, UniProt P00761)",,,"10 mg/mL, 2 weeks, 37 °C, with: Trypsin 0.05% with EDTA",,gel weight loss,75%
CCc1cc(C)nc2c(CC(=O)N(CC)CC)c(-c3ccc(OCC[18F])cc3)nn12,"Tspo (Rattus norvegicus, UniProt P16257)",two-tissue compartment model,"rat C6 glioma model, tumor","dose not given, 60 min dynamic PET",,total distribution volume,7.89 ± 0.764 mL/cm3
C[C@]12CC[C@@H]3c4ccc(OCC(=O)N[C@@H](CCCCNC(=O)CN5CCN(CC(=O)[O-])CCN(CC(=O)[O-])CCN(CC(=O)[O-])CC5)C(=O)O)cc4CC[C@H]3[C@@H]1CCC2=O.[68Ga+3],estrogen receptor,,"nude mice, MCF7 xenograft, uterus","dose not given, 2.5 h post-injection, with: estradiol blocking dose",,radioactivity uptake,0.71 ± 0.15 %ID/g
CC(C)C[C@H](NC(=O)CNC(=O)[C@H](CC(C)C)NC(=O)[C@@H]1CCCN1C(=O)CNC(=O)[C@H](Cc1ccccc1)NC(=O)[C@H](Cc1ccccc1)NC(=O)OCC1c2ccccc2-c2ccccc21)C(=O)N[C@@H](CCCNC(=N)N)C(=O)N[C@@H](CO)C(=O)N[C@@H](CCCCN)C(=O)O,MMP-9,"substrate, HPLC",,"500 µM, 72 h, pH 7.5, 37 °C, with: 10 U MMP-9",,remaining substrate,68%
Cn1cnc(C(=O)N(Cc2ccc(F)c(OC3CCCC3)c2)C2CC3CN([11CH3])CC3C2)c1 (stereo not shown),"Abcb1a (Mus musculus, UniProt P21447)",,mouse,with: cyclosporin A 50 mg/kg iv,reference: cyclosporin A over control,brain uptake ratio,11.7
NCCCC[C@H](NC(=O)[C@H](Cc1ccc(O)cc1)NC(=O)[C@H](CCCCN)NC(=O)[C@H](Cc1c[nH]c2ccccc12)NC(=O)[C@H](Cc1ccccc1)NC(=O)[C@H](Cc1ccccc1)NC(=O)Cc1ccc(-c2ccccc2)cc1)C(=O)NCC(=O)N[C@@H](Cc1c[nH]cn1)C(=O)N1CCC[C@H]1C(=O)NCC(=O)NCC(=O)N1CCC[C@H]1C(=O)N[C@@H](CCC(N)=O)C(=O)N[C@@H](CC(=O)O)C(=O)N[C@@H](CC(=O)O)C(=O)N[C@@H](CC(=O)O)C(=O)N[C@@H](CC(=O)O)C(=O)N[C@@H](CC(=O)O)C(=O)N[C@@H](CC(=O)O)C(=O)O,"Cathepsin K (CTSK, Homo sapiens, UniProt P43235)",Zetasizer,MES buffer,"64 µM, pH 5.5, without enzyme, before cleavage",,zeta potential,-22.3 mV
CC(=O)N1CCC[C@H]1C(=O)N[C@@H](CC(C)C)C(=O)N[C@@H](CO)C(=O)N[C@@H](CC(C)C)C(=O)N[C@@H](CCCNC(=N)N)C(=O)N[C@@H](CO)C(=O)N[C@@H](CCCCN)C(=O)O,MMP-9,"substrate, HPLC",,"500 µM, 72 h, pH 7.5, 37 °C, with: 10 U MMP-9",,remaining substrate,< 10%
[64Cu+2].c1cnc(CNCc2ccc(CN3CCCN4CCNCCCN(CC4)CC3)cc2)nc1,CXCR4,,"NOD/SCID mouse, U87 and U87-stb-CXCR4 xenografts, lungs","iv, 120 min, ex vivo",,tissue uptake,7.12 ± 0.89 %ID/g
O=C(O)c1cc(Br)c(O)c(Br)c1,CYP2E1,"p-nitrophenol hydroxylation, competitive inhibitor, Cheng-Prusoff from IC50",,with: p-nitrophenol,,Ki,100 nM
CC[C@H](C)[C@@H]1NC(=O)[C@H](Cc2c[nH]c3ccccc23)NC(=O)[C@H](CCCN)NC(=O)CNC(=O)[C@H]2CCCN2C(=O)[C@H](C(C)C)NC(=O)[C@H](CCCCN)NC(=O)[C@H](C(C)C)NC(=O)[C@H](Cc2c[nH]c3ccccc23)NC(=O)[C@H](CCCNC(=N)N)NC(=O)[C@@H](NC(C)=O)CCCCn2cc(nn2)C[C@@H](C(N)=O)NC(=O)[C@H](CCC(N)=O)NC(=O)[C@H](CCCCN)NC1=O,Pronase E (Streptomyces griseus),substrate,,"pH 7.6, 37 °C",reference: cyclic over non-cyclic peptide,half-life ratio,≥ 5 fold
Cc1ccc(OCC(=O)N(Cc2cccs2)c2ccn[nH]2)cc1,"Cytochrome P450 1A2 (CYP1A2, Homo sapiens, UniProt P05177)","enzyme activity, inhibitor, fluorescence",Sf9,10 µM,,inhibition,59%
CC(C)C[C@H](NC(=O)[C@H](CO)NC(=O)[C@H](CC(C)C)NC(=O)[C@@H]1CCCN1C(=O)OCC1c2ccccc2-c2ccccc21)C(=O)N[C@@H](CCCNC(=N)N)C(=O)N[C@@H](CO)C(=O)N[C@@H](CCCCN)C(=O)O,MMP-9,"substrate, HPLC",,"500 µM, 72 h, pH 7.5, 37 °C, with: 10 U MMP-9",,remaining substrate,< 10%
O=C(O)C(O)Cc1ccc(O)c(O)c1 (stereo not shown),"cytochrome P450, rat",substrate,rat liver microsomes,with: NADPH,,oxidation,not detected
COc1cc(-c2nc3ccccc3s2)cc(CN(Cc2ccccn2)Cc2ccccn2)c1O,Zn2+,UV-vis pH titration,,M2+ + L- = [ML]+ complex,,log K,16.5

# Excerpt of the above:
SMILES,target,test,system,conditions,scale,quantity,result
COc1cc(-c2nc3ccccc3s2)cc(CN(Cc2ccccn2)Cc2ccccn2)c1O,Zn2+,UV-vis pH titration,,M2+ + L- = [ML]+ complex,,log K,16.5
